{"data": "Results collected from several papers", "cell line": "HL-60", "note": "Compare with care: the assays were run in different laboratories. ± gives the spread as reported."}
{"SMILES": "c1cc(N2CCCCC2)ccc1Nc1cc2ncc(OCC3CCNCC3)nc2cc1-c1ccc(N2CCCCC2)cc1", "assay": "cell proliferation, XTT", "conditions": "7 days", "measurement": "EC50", "result": "3300 ± 40 nM"}
{"SMILES": "COc1cnc2cccc(N3CCc4c(cc(Cn5ccnc5C)cc4-c4cn(C)nc4C(F)(F)F)C3=O)c2c1", "assay": "cell growth, inhibitor", "conditions": "120 h", "measurement": "EC50", "result": "13000 nM"}
{"SMILES": "S=C([S][Au-][P+](CCCCCC[P+]([Au-][S]C(=S)n1cccn1)(c1ccccc1)c1ccccc1)(c1ccccc1)c1ccccc1)n1cccn1", "assay": "cell growth, NCI-60 screen", "conditions": "leukemia", "measurement": "log10 TGI", "result": -6.01}
{"SMILES": "COc1ccc(C(=O)CC(=O)c2ccc(C(C)(C)C)cc2)cc1", "how to read": "baseline: dark IC50 over light IC50", "measurement": "phototoxicity index", "result": 1}
{"SMILES": "CCn1cc(-c2cc(Cn3ccoc3=N)cc3c2CCN([C@@H](C)c2cc(OC)ccn2)C3=O)c(C(F)(F)F)n1", "assay": "cell growth, inhibitor", "conditions": "120 h", "measurement": "EC50", "result": "24 nM"}
{"SMILES": "C=Cc1c(C)c2cc3nc(c4c5[nH]c(cc6nc(cc1[nH]2)C(C)=C6CC)c(C)c5C(=O)C4)[C@@H](CCC(=O)O)[C@@H]3C", "assay": "cell entry, flow cytometry", "conditions": "50% human serum", "measurement": "time of peak fluorescence", "result": "1 h"}
{"SMILES": "CCCCCCCC(=O)Nc1ncc(Cc2cccc(OCc3cn(CCOC)nn3)c2)s1", "assay": "cell viability, MTS", "conditions": "10 µM", "measurement": "inhibition", "result": "24.3 ± 6.9%"}
{"SMILES": "O=C1NC(=NCc2cccs2)S/C1=C\\c1ccc2ncccc2c1", "assay": "cytotoxicity, MTS", "system": "NCI60 panel", "conditions": "acute myeloid leukaemia", "measurement": "IC50", "result": "1140 nM"}
{"SMILES": "C[C@@H]1CC2=C(CN1Cc1cccc(C#N)c1)C(=O)N(Cc1ccc3ccccc3c1)C1=NCCN12", "assay": "cell growth, MTS", "measurement": "IC50", "result": "25.3 ± 0.48 nM"}
{"SMILES": "Sc1ncnc2nc[nH]c12", "assay": "radioactive counts", "conditions": "1 µM, 14C-labelled compound", "how to read": "higher = more incorporation", "measurement": "DNA radioactivity", "result": "124 a.u."}
{"SMILES": "C[C@@H]1CC2=C(CN1Cc1cccc(C#N)c1)C(=O)N(Cc1ccc(Br)c(F)c1)C1=NCCN12", "assay": "cell growth, MTS", "measurement": "IC50", "result": "28.9 ± 5.29 nM"}
{"SMILES": "O=C(c1ccc2[nH]ccc2c1)N1CCN(S(=O)(=O)c2ccc3[nH]c(=O)oc3c2)CC1", "assay": "NUDT15 inhibitor, mass spectrometry", "conditions": "10 µM, 16 h, added: 6-thioguanine 0.5 µM", "how to read": "higher = more incorporation", "measurement": "6-thio-dGTP in DNA", "result": "1190 a.u."}
{"SMILES": "Fc1ccc(Oc2ccc(Nc3ccc4ncc(OCC5CCNCC5)nc4c3)cc2)cc1", "assay": "cell proliferation, XTT", "conditions": "7 days", "measurement": "EC50", "result": "660 ± 130 nM"}
{"SMILES": "C[C@@H]1CC2=C(CN1Cc1cccc(C#N)c1)C(=O)N(Cc1cccc3ccccc13)C1=NCCN12", "assay": "cell growth, MTS", "measurement": "IC50", "result": "28.2 ± 2.38 nM"}
{"SMILES": "c1cc(-c2cc3ncc(OCC4CCNCC4)nc3cc2-c2cccc(N3CCCCC3)c2)cc(N2CCCCC2)c1", "assay": "cell proliferation, XTT", "conditions": "7 days", "measurement": "EC50", "result": "890 ± 260 nM"}
{"SMILES": "Cc1ccc(Cn2cc(COc3cccc(Cc4cnc(NC(=O)CSc5nc(C)cc(C)n5)s4)c3)nn2)cc1", "assay": "cell viability, MTS", "conditions": "10 µM", "measurement": "inhibition", "result": "7.7 ± 2%"}
{"note": "Repeated from above:"}
{"SMILES": "COc1cnc2cccc(N3CCc4c(cc(Cn5ccnc5C)cc4-c4cn(C)nc4C(F)(F)F)C3=O)c2c1", "assay": "cell growth, inhibitor", "conditions": "120 h", "measurement": "EC50", "result": "13000 nM"}
{"SMILES": "C[C@@H]1CC2=C(CN1Cc1cccc(C#N)c1)C(=O)N(Cc1cccc3ccccc13)C1=NCCN12", "assay": "cell growth, MTS", "measurement": "IC50", "result": "28.2 ± 2.38 nM"}
